{"data": "Assay results of several laboratories", "note": "A part holds a random share of what one study measured. Positions count from the first letter of the parent shown."}
{"data": "Block 1", "target": "CCNA1, cyclin fold, Cln2 fusion (human)", "technique": "yeast growth competition, sequencing", "matrix": "yeast", "notes": "weak parent motif", "reference": "not given", "reading": "higher = stronger binding", "parent": "CDKN1A docking peptide (human); SKACRRLFGPVDS; partner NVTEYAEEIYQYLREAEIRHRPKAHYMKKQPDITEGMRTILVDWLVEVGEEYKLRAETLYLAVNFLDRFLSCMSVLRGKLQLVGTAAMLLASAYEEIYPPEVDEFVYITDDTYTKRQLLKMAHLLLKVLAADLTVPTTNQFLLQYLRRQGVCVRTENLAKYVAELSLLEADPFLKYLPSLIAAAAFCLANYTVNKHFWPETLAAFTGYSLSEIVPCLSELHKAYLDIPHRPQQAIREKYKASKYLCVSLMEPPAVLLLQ"}
{"Variant": "SKACRRLFKPVDS [G9K]", "normalised enrichment score": 0.524}
{"Variant": "SKACRRLFNPVDS [G9N]", "normalised enrichment score": 0.551}
{"Variant": "SKACRRWFGPVDS [L7W]", "normalised enrichment score": 0.153}
{"Variant": "SKACRRLFGEVDS [P10E]", "normalised enrichment score": 0.66}
{"Variant": "SKVCRRLFGPVDS [A3V]", "normalised enrichment score": 0.515}
{"Variant": "SKACRRGFGPVDS [L7G]", "normalised enrichment score": -0.23}
{"Variant": "SKACRRLFGNVDS [P10N]", "normalised enrichment score": 0.6}
{"Variant": "SKACRRLFGIVDS [P10I]", "normalised enrichment score": 0.232}
{"Variant": "SHACRRLFGPVDS [K2H]", "normalised enrichment score": 0.342}
{"Variant": "SKACRRLFMPVDS [G9M]", "normalised enrichment score": 0.715}
{"Variant": "SKMCRRLFGPVDS [A3M]", "normalised enrichment score": 0.367}
{"Variant": "SKACRQLFGPVDS [R6Q]", "normalised enrichment score": 0.563}
{"Variant": "SKACRRHFGPVDS [L7H]", "normalised enrichment score": 0.141}
{"Variant": "SCACRRLFGPVDS [K2C]", "normalised enrichment score": 0.0857}
{"data": "Block 2", "target": "Histone acetyltransferase KAT6A, both winged helices, GST fusion (KAT6A, Homo sapiens, UniProt Q92794, residues 1-181)", "technique": "protein binding microarray", "form": "double-stranded DNA, one strand shown", "matrix": "in vitro", "concentration": "not given", "notes": "8-mer, flanks averaged, mean of 2 arrays, mostly near background", "reference": "not given", "reading": "higher = stronger binding", "Target sequence (chain)": "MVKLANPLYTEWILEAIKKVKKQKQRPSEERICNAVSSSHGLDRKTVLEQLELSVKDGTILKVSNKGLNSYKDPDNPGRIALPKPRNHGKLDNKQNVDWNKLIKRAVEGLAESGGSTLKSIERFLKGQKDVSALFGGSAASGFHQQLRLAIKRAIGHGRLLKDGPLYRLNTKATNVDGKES"}
{"Strand": "CCCGAGGG", "E-score": -0.0862}
{"Strand": "GATTGCGC", "E-score": 0.326}
{"Strand": "CTGGCGTC", "E-score": 0.0475}
{"Strand": "AATACGAG", "E-score": -0.0636}
{"Strand": "CCGGACGA", "E-score": 0.0719}
{"Strand": "AAAACGAA", "E-score": -0.0918}
{"Strand": "CAAGGCCA", "E-score": -0.105}
{"Strand": "ACGCTGCT", "E-score": 0.0101}
{"Strand": "AGAGAAAG", "E-score": -0.295}
{"Strand": "TCTGTGCA", "E-score": -0.197}
{"Strand": "ATAACAAT", "E-score": -0.108}
{"Strand": "GAGTTGAC", "E-score": -0.0722}
{"Strand": "GTAGCGTA", "E-score": 0.0808}
{"Strand": "GAAGAGGA", "E-score": -0.0472}
{"Strand": "CTAGTCGC", "E-score": 0.073}
{"Strand": "CCCGAGAA", "E-score": 0.00825}
{"Strand": "CCGTGAAA", "E-score": 0.284}
{"Strand": "ATTTCATC", "E-score": -0.0696}
{"Strand": "AGCTCCGC", "E-score": 0.127}
{"Strand": "CTCCCGAC", "E-score": 0.149}
{"Strand": "ATTTTCGA", "E-score": 0.0353}
{"Strand": "CATTAGTA", "E-score": -0.073}
{"Strand": "TCACTCAA", "E-score": -0.16}
{"Strand": "GTTTACTA", "E-score": -0.00625}
{"data": "Block 3", "target": "Centromere-binding protein 1, full length, His-tagged (CBF1, Saccharomyces cerevisiae, UniProt P17106, residues 1-351)", "technique": "competition protein-binding microarray", "form": "double-stranded DNA, one strand shown", "matrix": "in vitro", "concentration": "2 µM", "notes": "whole 60-bp probe, lowest competitor level", "added": "Pho4 competitor, 0.05 µM", "reading": "higher = stronger binding", "shared flanks, not repeated": "… GTCTTGATTCGCTTGACGCTGCTG", "sequence of UniProt P17106 (whole entry, looked up)": "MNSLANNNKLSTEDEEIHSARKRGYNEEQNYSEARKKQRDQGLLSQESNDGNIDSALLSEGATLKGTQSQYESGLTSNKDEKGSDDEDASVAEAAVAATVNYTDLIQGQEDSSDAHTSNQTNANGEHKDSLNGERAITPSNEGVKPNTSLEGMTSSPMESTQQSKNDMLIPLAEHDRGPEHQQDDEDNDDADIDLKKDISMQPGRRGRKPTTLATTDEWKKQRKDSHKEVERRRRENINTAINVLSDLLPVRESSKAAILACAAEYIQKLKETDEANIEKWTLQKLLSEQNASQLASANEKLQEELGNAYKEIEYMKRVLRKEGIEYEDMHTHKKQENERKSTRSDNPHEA"}
{"Strand": "CTAACGAAGGTTTTTCACGTGTGTTACAAGCCAAGT", "fluorescence intensity": "582 a.u."}
{"Strand": "GGAGATGCCAGAAAAAGCGTGGGTACTGGTCTGGTT", "fluorescence intensity": "59.9 a.u."}
{"Strand": "AGCCAGGTTGCTTCACACGTGTTGGTGTACGTTAAG", "fluorescence intensity": "947 a.u."}
{"Strand": "CTAACGAAGGTTTGTCACTGAACTTACAAGCCAAGT", "fluorescence intensity": "66.5 a.u."}
{"Strand": "GAAATGAGGTTTTAGCACGTGATGGGGAAGCCACAG", "fluorescence intensity": "4800 a.u."}
{"Strand": "ACCTCATCACATCGACGCGTGGAACAGCGTTTCTTC", "fluorescence intensity": "79.6 a.u."}
{"Strand": "CCGGCCATTGCTTACCGCGTGCAAAATCCGTAACAT", "fluorescence intensity": "90.1 a.u."}
{"Strand": "AGGCTCTTTTCCCGTCACGTAAGGTGTGGAAGTTAG", "fluorescence intensity": "80.5 a.u."}
{"Strand": "CACACCAAAAGAGTGTGCGTGTCCTGTCATTCGAGT", "fluorescence intensity": "70.3 a.u."}
{"Strand": "AGATTAGTCTATTTGACCGTGCCGATTTTGCACTTT", "fluorescence intensity": "93.8 a.u."}
{"Strand": "TGCGCAACAACTTGCAAAGTGGGTGTATGTCTAGAA", "fluorescence intensity": "65.6 a.u."}
{"Strand": "TCATTGCTGGCTTGCCACGTGATGGCAATAGGCTTT", "fluorescence intensity": "5000 a.u."}
{"Strand": "CTTCTGTAAATTTTTCACGTGATGTGAAGCGCCCCG", "fluorescence intensity": "2910 a.u."}
{"Strand": "GAAACCTGAAACTGCCACGTGAAGACACCAGGGCTG", "fluorescence intensity": "505 a.u."}
{"Strand": "CTAACGAAGGTTTGGATAGTGGGTGACAAGCCAAGT", "fluorescence intensity": "79 a.u."}
{"data": "Block 4", "target": "Interferon regulatory factor 7, full length, phosphomimetic (IRF7, Homo sapiens, UniProt Q92985, residues 1-503, S101K/S471D/S472D/S475D/S476D/S477D/S483D/S484D/S487D)", "technique": "protein-binding microarray", "form": "double-stranded DNA, one strand shown", "matrix": "in vitro", "concentration": "250 nM", "notes": "60-bp whole probe", "added": "salmon DNA 0.4 mg/ml", "reference": "random background probes", "reading": "higher = stronger binding", "shared flanks, not repeated": "GCCTAGCAC … GTCTTGATTCGCTTGACGCTGCTG", "sequence of UniProt Q92985 (whole entry, unmodified, looked up)": "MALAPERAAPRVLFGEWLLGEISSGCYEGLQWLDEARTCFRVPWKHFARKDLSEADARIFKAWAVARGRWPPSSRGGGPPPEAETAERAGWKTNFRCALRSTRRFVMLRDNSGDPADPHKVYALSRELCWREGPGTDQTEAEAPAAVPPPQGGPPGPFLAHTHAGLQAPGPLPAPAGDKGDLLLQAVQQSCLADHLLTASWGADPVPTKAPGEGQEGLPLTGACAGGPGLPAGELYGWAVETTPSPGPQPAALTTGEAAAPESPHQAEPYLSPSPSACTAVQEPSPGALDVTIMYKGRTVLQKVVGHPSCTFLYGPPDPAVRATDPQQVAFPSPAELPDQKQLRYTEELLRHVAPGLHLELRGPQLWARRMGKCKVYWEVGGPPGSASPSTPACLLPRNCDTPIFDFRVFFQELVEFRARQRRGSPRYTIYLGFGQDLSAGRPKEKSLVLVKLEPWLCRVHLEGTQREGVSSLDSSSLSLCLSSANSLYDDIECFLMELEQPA"}
{"Strand": "TTACGACTGGGGACTGGGTTAGTGCTA", "log fluorescence [z-score]": -0.156}
{"Strand": "TCACCTATAGGTTCAACACTGTGCTAG", "log fluorescence [z-score]": 0.052}
{"Strand": "GACGGTATCAGGACTGGGGACGTGCTA", "log fluorescence [z-score]": -0.487}
{"Strand": "TTAGATCTCAGTTTTGATTAGTGCTAG", "log fluorescence [z-score]": 1.24}
{"Strand": "GTAGGTTTCCTTATCCTTTAGTGCTAG", "log fluorescence [z-score]": 2.49}
{"Strand": "CTAGAGATTTTTCTCAACCGGTGCTAG", "log fluorescence [z-score]": -0.019}
{"Strand": "TCATGTGTCTGATTATTACTGTGCTAG", "log fluorescence [z-score]": 0.102}
{"Strand": "TTAGGTTCCGGTTTCGGTTAGTGCTAG", "log fluorescence [z-score]": 10.9}
{"Strand": "GCCGGTTTCGGGACTGGGGACGTGCTA", "log fluorescence [z-score]": 4.46}
{"Strand": "TTAGGACAGGGTTTCGGTTAGTGCTAG", "log fluorescence [z-score]": 6.69}
{"Strand": "GTAGGTATCGACTTTCGGTTAGTGCTA", "log fluorescence [z-score]": 2.66}
{"Strand": "TTAGAGCTCAGACTGGATTAGTGCTAG", "log fluorescence [z-score]": -0.544}
{"Strand": "TCATGTGTTACTTTCTAACTGTGCTAG", "log fluorescence [z-score]": 0.246}
{"Strand": "TTAGGTTTCGATATCGGTTAGTGCTAG", "log fluorescence [z-score]": 12.2}
{"Strand": "GACGGTATCGGGATCGGGACGTGCTAG", "log fluorescence [z-score]": 0.228}
{"Strand": "TCATTTATATGCTATGTAACTGTGCTA", "log fluorescence [z-score]": 1.09}
{"Strand": "TCACAGTTTAATATCTAACTGTGCTAG", "log fluorescence [z-score]": 0.202}
{"Strand": "TTCTCTTTCACTACTCCATTGTGCTAG", "log fluorescence [z-score]": 1.54}
{"Strand": "CATTGCCTGTTTTTCCCCTGGTGCTAG", "log fluorescence [z-score]": 0.697}
{"data": "Mixed results"}
{"Substance": "PhoQ, residues 284 288 289 292 302 303 NLCILV", "target": "PhoP, residues 12 14 15 18 19 GHCSL (Escherichia coli, UniProt P23836)", "test": "Sort-seq, measured: YFP reporter", "system": "E. coli", "conditions": "PhoQ-PhoP variant library, added: 10 µM Mg2+", "how to read": "reference: high Mg2+ state, higher = stronger signaling", "measurement": "fold induction", "result": 20.7}
{"note": "Excerpt of the above (block 2):"}
{"Strand": "CAAGGCCA", "E-score": -0.105}
{"Strand": "ACGCTGCT", "E-score": 0.0101}
{"Strand": "AGAGAAAG", "E-score": -0.295}
{"Strand": "TCTGTGCA", "E-score": -0.197}
{"Strand": "ATAACAAT", "E-score": -0.108}
